Published values gathered from unrelated publications.
Parts stem from different laboratories: compare values within a part only. Changes are numbered by the printed parent chain.

Block 1
Target: CCNA1, cyclin fold, Cln2 fusion (human)
Method: yeast growth competition, sequencing
Matrix: yeast
Setting: weak parent motif
Reference: not given
Reading: higher = stronger binding
Starting sequence: E2F1 docking peptide (human); PPVKRRLDLETDH; partner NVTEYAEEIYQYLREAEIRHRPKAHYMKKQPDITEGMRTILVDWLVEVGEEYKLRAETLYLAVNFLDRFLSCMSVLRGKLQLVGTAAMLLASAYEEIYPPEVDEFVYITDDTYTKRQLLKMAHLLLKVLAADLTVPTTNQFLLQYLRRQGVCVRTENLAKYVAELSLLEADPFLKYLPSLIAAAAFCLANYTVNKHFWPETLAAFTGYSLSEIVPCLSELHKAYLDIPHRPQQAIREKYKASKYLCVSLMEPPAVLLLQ
`PPVERRLDLETDH [K4E]`: “normalised enrichment score” 0.305.
`PPVKDRLDLETDH [R5D]`: “normalised enrichment score” 0.607.
Under “normalised enrichment score”, `PPVKIRLDLETDH [R5I]` is recorded as 0.245.
`PPVKRDLDLETDH [R6D]` — result for “normalised enrichment score”: -0.0231.
For `TPVKRRLDLETDH [P1T]`, “normalised enrichment score” read 0.232.
For `PPVRRRLDLETDH [K4R]`, “normalised enrichment score” read 0.742.

Block 2
Target: Interferon regulatory factor 7, full length, phosphomimetic (IRF7, Homo sapiens, UniProt Q92985, residues 1-503, S101K/S471D/S472D/S475D/S476D/S477D/S483D/S484D/S487D)
Method: protein-binding microarray
Form: double-stranded DNA, one strand shown
Matrix: in vitro
Concentration: 250 nM
Setting: 60-bp whole probe
Added: salmon DNA 0.4 mg/ml
Reference: random background probes
Reading: higher = stronger binding
Shared flanks, not repeated: GCCTAGCAC … GTCTTGATTCGCTTGACGCTGCTG
Construct (chain): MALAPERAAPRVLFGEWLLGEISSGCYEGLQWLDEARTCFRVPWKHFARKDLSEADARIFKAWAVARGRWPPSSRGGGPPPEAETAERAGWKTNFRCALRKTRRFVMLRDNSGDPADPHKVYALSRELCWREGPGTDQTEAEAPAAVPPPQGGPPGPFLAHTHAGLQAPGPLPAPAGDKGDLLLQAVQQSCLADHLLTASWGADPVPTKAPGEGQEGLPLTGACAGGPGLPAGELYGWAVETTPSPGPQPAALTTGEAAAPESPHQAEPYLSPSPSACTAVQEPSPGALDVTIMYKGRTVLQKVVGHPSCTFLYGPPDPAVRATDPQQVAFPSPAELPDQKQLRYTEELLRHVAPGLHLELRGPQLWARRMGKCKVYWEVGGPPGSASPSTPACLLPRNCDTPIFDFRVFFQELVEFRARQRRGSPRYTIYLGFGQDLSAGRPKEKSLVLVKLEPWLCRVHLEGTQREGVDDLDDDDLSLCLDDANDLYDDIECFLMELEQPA
For `GACGAAATCGGGTATCGAGACGTGCTA`, the log fluorescence was -0.0669 z-score.
`CCCTGTTTCCATCTCTCAAAGTGCTAG` gave a log fluorescence of 3.5 z-score.
For `TCATATATATTATATATTACTGTGCTA`, the log fluorescence was 0.571 z-score.
`TCAGCTCTGTGCATAGTACTGTGCTAG` has a log fluorescence of -0.794 z-score.
`GACTGTATCGACTTTCGGGACGTGCTA` gave a log fluorescence of 0.293 z-score.
With `ACACATCTCACTCTAATCTCGTGCTAG` the log fluorescence was 0.513 z-score.
The log fluorescence of `TCATAGATGCCTTTCTCACTGTGCTAG` is reported as -0.194 z-score.
`TTAGGTATCGACTATCGGATAGTGCTA` gave a log fluorescence of 0.303 z-score.
`TCAGGACTGGGTCTCGGTTAGTGCTAG` gave a log fluorescence of 0.771 z-score.

Block 3
Target: RING finger protein unkempt homolog, zinc fingers 1-6, SBP tag (UNK, Homo sapiens, UniProt Q9C0B0, residues 30-357)
Sequence of UniProt Q9C0B0 (30-357, looked up): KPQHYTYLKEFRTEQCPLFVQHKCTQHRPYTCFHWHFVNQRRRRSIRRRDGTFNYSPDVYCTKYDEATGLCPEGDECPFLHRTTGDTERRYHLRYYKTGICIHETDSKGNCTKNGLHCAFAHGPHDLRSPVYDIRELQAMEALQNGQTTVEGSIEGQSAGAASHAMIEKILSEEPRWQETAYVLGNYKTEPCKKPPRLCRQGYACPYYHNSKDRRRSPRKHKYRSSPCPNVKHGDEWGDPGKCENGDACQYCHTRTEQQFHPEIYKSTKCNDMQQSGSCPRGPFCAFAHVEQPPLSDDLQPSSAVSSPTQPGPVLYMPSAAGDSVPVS
Method: RNA Bind-n-Seq
Form: RNA
Matrix: in vitro
Concentration: 100 nM
Setting: RNA with constant flanks, vertebrate orthologous sites, ends assumed
Reference: input RNA pool
Reading: higher = stronger binding
Shared flanks, not repeated: GGGAGUUCUACAGUCCGACGAUC … CAACAGAGGAUUGAGCAUCA
`UCAUUGUGCUGCAAAAAUCAUCCUCUUUCUAAAUUAGCCACAGUGAUAACUAGUCUGCACUAGUAGAAUCAUUUACCUUUUAAACUAUCUGCUUUGUCUGAUACCUGAAACACAUCAAAA` has a bound/input enrichment of 0.53 ratio.
`UUUGGUUCCUUUCUGUUUUGGAGAAUUUAAAAAAAUAAUUAAGAAGUUUGCUCUCCCGAAUAGUGAACGUAACGAAACCGAUCUCGAUGUUGCUAUAGUGACAUGCGAUUCUAUGCGAUU` has a bound/input enrichment of 0.262 ratio.
The bound/input enrichment of `ACUAGUAUCCUACCAGCCUAUCAACCUCUCUGUCUGUGCACAGCUUCAGAUGUUACCGUCUAGCUAGAUUUUUAUUUAAAAUAUGAAAAACUGCUUUUCCCAAGACGUUUUUUAAAGACA` is reported as 1.89 ratio.
`GGAGGUUUGCUUCCUCCAACUUCAGUUUUUCAGGUUGUAGCUGGUUUUUUUCUUCUCCGCCCCCCACCGCAGUUCUUUCACUUUCGUUUCUGUUUCCCCAACUUCAAAUACACAAAUCCU` has a bound/input enrichment of 0.809 ratio.
`UCCUCAACUUCUUCUAGCUUGUGGUCCUUCAAAGCUGGGGUGGACAUUAGUGCUAGAUACUAGAAAUCUUCAUUUCCCUGUUGCCAGUGAUCAGAGAGACAGGCAUUAAAACAGGAAUAU` gave a bound/input enrichment of 0.849 ratio.
`ACCUCCAAUAGGCUAAUUCAGGGAAAGGAAACAGGCUUCAGGGAAUAUAAAUUAAUAUAGUAGUAGUCAUGAAGAAUAACUUUGAUAUAACUGAUUUGGGGGAGUGAUGGCAACUUGUGA` gave a bound/input enrichment of 1.38 ratio.
`GCUAGCCCAGGAUCCCUACAGGCUGGCUCAAGACGCGUACAGGUUAGGCCACGACCCCUACCGGGUAGGGCACGACCCCUAUAGACUAGCCCCCGACCCCUACAGGAUGUCCGCCAGGCC` has a bound/input enrichment of 0.373 ratio.

Other studies, line by line
With `PhoQ, residues 284 288 289 292 302 303 SSYNSA` the fold induction was 1.05 (PhoP, residues 12 14 15 18 19 NHTVL (Escherichia coli, UniProt P23836); Sort-seq, item: YFP reporter; E. coli; PhoQ-PhoP variant library, added: 10 µM Mg2+; reference: high Mg2+ state, higher = stronger signaling).
